Published values gathered from unrelated publications.
Compare with care: the assays were run in different laboratories. Numbers after ± are the reported error.

Structure (SMILES) | test | system | setting | solubility
O=c1ccn([C@@H]2O[C@H](CO)[C@@H](O)[C@H]2O)c(=S)[nH]1 | – | simulated gastric fluid | 4 (unit not given), pH 1.2, 37 °C | 78 µM
C#Cc1ccc2c(c1)C(c1ccccn1)=NCc1c(-c3cnco3)ncn1-2 | thermodynamic equilibrium, UV | tetrahydrofuran | 24 h, 25 °C | 4.13 mg/mL
CN1C(=O)Cc2ccc(F)c(CNCCCC3CN(c4ccc5c(n4)NC(=O)CO5)C(=O)O3)c21 (stereo not drawn) | – | aqueous buffer | – | 133 µM
COc1ccc(-c2oc3cc(OC)cc(OC)c3c(=O)c2OC)cc1 | HPLC | ethanol:butylene glycol 75:25 | – | 6228 ± 21 ppm
Cn1c(=O)cnc2ccc(F)c(CCNC[C@H]3CN(c4cnc5c(n4)NC(=O)CO5)C(=O)O3)c21 | – | aqueous buffer | – | 105 µM
CC[C@@H]1NC(=O)[C@H](CC(C)C)NC(=O)CN(C)C(=O)CNC(=O)[C@@H](CC(C)C)NC(=O)[C@@H](Cc2ccc(O)cc2)NC(=O)CSC[C@@H](C(=O)O)NC(=O)[C@H](C(C)C)NC(=O)[C@H](CC(C)C)NC(=O)[C@H](C)NC(=O)[C@H]([C@@H](C)CC)NC1=O | – | HBSS | pH 7.4 | 138 µM
NC(=O)[C@@H]1CC(F)(F)CN1C(=O)c1ccc(N2CC(F)(F)C2)c(OCC2CC2)n1 | LYSA | – | – | 0.004 ± 0.0001 mg/mL
COC1=CC(c2ccc[nH]2)=N/C1=C\c1[nH]c(-c2ccc(Cl)cc2)cc1-c1ccc(Cl)cc1 | – | potassium phosphate buffer | 1.5 h, pH 7.4, room temperature, 100 mM buffer | 52.8 µM
CN(C)S(=O)(=O)NCC1CCOC2(CCN(C(=O)C3(c4ccncc4)CCCC3)CC2)C1 (stereo not drawn) | – | – | pH 7.4 | 180 µM
CC[C@H](C)[C@H](NC(=O)[C@H](C)NC(=O)[C@H](CCC(=O)O)NC(=O)[C@H](CCC(=O)O)NC(=O)[C@H](CC(C)C)NC(=O)[C@H](CCCCN)NC(=O)[C@H](CCCCN)NC(=O)[C@H](CCSC)NC(=O)[C@H](CCC(=O)O)NC(=O)[C@H](Cc1ccc(O)cc1)NC(=O)[C@H](CCC(=O)O)NC(=O)[C@H](CC(C)C)NC(=O)[C@H](CC(=O)O)NC(=O)[C@H](CC(C)C)NC(=O)[C@H](Cc1ccccc1)NC(=O)[C@@H](NC(=O)[C@@H](NC(=O)[C@H](CC(N)=O)NC(=O)[C@@H](NC(=O)[C@H](CCC(N)=O)NC(=O)[C@H](CC(=O)O)NC(=O)[C@H](CC(C)C)NC(=O)[C@@H](N)CO)[C@@H](C)CC)C(C)C)[C@@H](C)O)C(=O)N[C@@H](CCCCN)C(=O)N[C@@H](CCCCN)C(=O)N[C@@H](CC(C)C)C(=O)N[C@@H](CCC(=O)O)C(=O)N[C@@H](CCC(=O)O)C(=O)N[C@@H](CO)C(=O)N[C@@H](Cc1ccc(O)cc1)C(=O)N[C@H](C(=O)N[C@@H](CC(=O)O)C(=O)N[C@@H](CC(C)C)C(=O)N[C@@H](CCCCN)C(=O)N[C@@H](CCC(=O)O)C(=O)N[C@@H](CC(C)C)C(=O)O)[C@@H](C)CC | – | water | – | 21000 ± 1150 µM
CCc1cc(C)cc(CC)c1-c1c(OC(=O)C(C)(C)C)n2n(c1=O)CCOCC2 | – | PBS | 2 h, pH 7.4, 25 °C, 2% DMSO | 358 µM
Cc1ccc(S(=O)(=O)Nc2c(N[C@H]3CC[C@H](NC(=O)Nc4ccc(F)c(Cl)c4)CC3)c(=O)c2=O)cc1 | – | – | pH 7.4 | 0.473 mg/mL
CN(C)S(=O)(=O)NCC1CCOC2(CCN(C(=O)C3(c4ccccc4Cl)CCCC3)CC2)C1 (stereo not drawn) | – | – | pH 7.4 | 240 µM
N#Cc1ccc([C@@H]2COC[C@H](c3cccnc3)N2)cc1 | shake-flask, LC-HRMS | aqueous buffer | 16 h, pH 6.8 | > 750 µM
CN(C)S(=O)(=O)NCC1CCOC2(CCN(C(=O)C3(c4ccccn4)CCCC3)CC2)C1 (stereo not drawn) | – | – | pH 7.4 | 170 µM
CC[C@@H]1NC(=O)[C@H](CC(C)C)NC(=O)[C@H](CC(C)C)NC(=O)CNC(=O)[C@@H](Cc2ccc(O)cc2)NC(=O)[C@H]2CCCN2C(=O)[C@H](CCCNC(=N)N)NC(=O)[C@H](C(C)C)NC(=O)[C@H](CC(C)C)NC(=O)[C@H]([C@@H](C)CC)NC1=O | – | HBSS | pH 7.4 | 692 µM
CSCC[C@H](NC(=O)[C@H](CCC(=O)O)NC(=O)[C@@H]1CCCN1C(=O)[C@@H](NC(=O)[C@@H]1CCCN1)[C@@H](C)O)C(=O)N[C@@H](CCCNC(=N)N)C(=O)N[C@@H](CCC(=O)O)C(=O)N[C@@H](CCCCN)C(=O)N[C@@H](CC(C)C)C(=O)N[C@H]1CSSC[C@@H]2NC(=O)[C@@H](NC(=O)[C@H](Cc3ccc(O)cc3)NC(=O)[C@H](CCCNC(=N)N)NC(=O)[C@H](C)NC(=O)[C@@H]3CCCN3C(=O)[C@H](CC(N)=O)NC(=O)[C@@H](NC(=O)[C@H](C)NC(=O)[C@H](C)NC(=O)[C@H](C)N)[C@@H](C)O)CSSC[C@H](NC(=O)CNC(=O)[C@H](CO)NC(=O)[C@H](CC(C)C)NC2=O)C(=O)N[C@@H]([C@@H](C)O)C(=O)N[C@@H](CCC(N)=O)C(=O)N[C@@H](CCC(N)=O)C(=O)N[C@@H](CC(=O)O)C(=O)N[C@@H](CC(C)C)C(=O)N[C@@H](CC(C)C)C(=O)N[C@@H]([C@@H](C)O)C(=O)N[C@@H](CC(C)C)C(=O)N[C@H](C(=O)N2CCC[C@H]2C(=O)N[C@@H](Cc2ccc(O)cc2)C(=O)O)CSSC[C@@H](C(=O)NCC(=O)NCC(=O)N2CCC[C@H]2C(=O)N[C@@H](CCCNC(=N)N)C(=O)N[C@@H](Cc2c[nH]c3ccccc23)C(=O)N[C@@H](CO)C(=O)N[C@H](C(=O)N[C@@H](CCC(=O)O)C(=O)N[C@@H](C)C(=O)O)[C@@H](C)O)NC(=O)[C@H](C(C)C)NC(=O)[C@H](CCCNC(=N)N)NC(=O)[C@H](C(C)C)NC(=O)[C@H](CC(C)C)NC(=O)[C@H](C)NC(=O)[C@H](CCCNC(=N)N)NC(=O)[C@H](C(C)C)NC(=O)[C@H](Cc2ccccc2)NC(=O)[C@H](Cc2c[nH]cn2)NC(=O)[C@H](Cc2c[nH]cn2)NC(=O)CNC1=O | – | water | pH 5 | > 1200 µM
COC1=C(OC)/C(=C/c2cc(Cc3ccc(Cl)cc3)c(C)[nH]2)N=C1c1ccc[nH]1.Cl | – | potassium phosphate buffer | 1.5 h, pH 7.4, room temperature, 100 mM buffer | 8.32 µM
CC[C@H](C)[C@H](NC(=O)[C@H](CCC(=O)O)NC(=O)[C@H](CCCCN)NC(=O)[C@H](CC(C)C)NC(=O)[C@H](CC(=O)O)NC(=O)[C@@H](NC(=O)[C@H](Cc1ccc(O)cc1)NC(=O)[C@H](CO)NC(=O)[C@H](CCC(=O)O)NC(=O)[C@H](CCC(=O)O)NC(=O)[C@H](CC(C)C)NC(=O)[C@H](CCCCN)NC(=O)[C@H](CCCCN)NC(=O)[C@@H](NC(=O)[C@H](C)NC(=O)[C@H](CCC(=O)O)NC(=O)[C@H](CCC(=O)O)NC(=O)[C@H](CC(C)C)NC(=O)[C@H](CCCCN)NC(=O)[C@H](CCCCN)NC(=O)[C@H](CCSC)NC(=O)[C@H](CCC(=O)O)NC(=O)[C@H](Cc1ccc(O)cc1)NC(=O)[C@H](CCC(=O)O)NC(=O)[C@H](CC(C)C)NC(=O)[C@H](CC(=O)O)NC(=O)[C@H](CC(C)C)NC(=O)[C@H](Cc1ccccc1)NC(=O)[C@@H](NC(=O)[C@@H](NC(=O)[C@H](CC(N)=O)NC(=O)[C@@H](NC(=O)[C@H](CCC(N)=O)NC(=O)[C@H](CC(=O)O)NC(=O)[C@H](CC(C)C)NC(=O)[C@@H](N)CO)[C@@H](C)CC)C(C)C)[C@@H](C)O)[C@@H](C)CC)[C@@H](C)CC)C(=O)O | – | water | – | 19400 ± 238 µM
O=C(NCCCNc1nc(Nc2cccc(NC(=O)N3CCCC3)c2)ncc1I)c1cccs1 | – | Peceol | 24 h, 37 °C | 0.69 ± 0.15 mg/mL
COC1=CC(c2ccc[nH]2)=N/C1=C\c1cc(-c2ccc(OC)cc2)c(C)[nH]1.Cl | – | potassium phosphate buffer | 1.5 h, pH 7.4, room temperature, 100 mM buffer | 25.1 µM
CNC(=O)c1cc(C)ccc1OCCc1cc(F)cc(F)c1 | – | PBS | 30 (unit not given), pH 7.4 | 50 µM
CCOC(=O)N1C[C@H](CC(C)C)N[C@H](c2ccc(C)nc2)C1 | shake-flask, LC-HRMS | aqueous buffer | 16 h, pH 6.8 | > 750 µM
COc1cc(Nc2ncc(F)c(Nc3ccc4c(n3)NC(=O)C(C)(C)O4)n2)cc(OC)c1OC | – | kinase assay buffer | 3 h, 1% DMSO | 170 µM

Repeated from above:
Structure (SMILES) | test | system | setting | solubility
COC1=CC(c2ccc[nH]2)=N/C1=C\c1[nH]c(-c2ccc(Cl)cc2)cc1-c1ccc(Cl)cc1 | – | potassium phosphate buffer | 1.5 h, pH 7.4, room temperature, 100 mM buffer | 52.8 µM
CN(C)S(=O)(=O)NCC1CCOC2(CCN(C(=O)C3(c4ccncc4)CCCC3)CC2)C1 (stereo not drawn) | – | – | pH 7.4 | 180 µM
